{"data": "Results gathered from unrelated publications", "note": "Compare with care: the assays were run in different laboratories."}
{"SMILES": "Cc1cc(-c2nnc(N)nc2-c2ccc(F)cc2)cc(Cl)n1", "assay": "refers to: Colitis", "test system": "IO-naive mCRPC patients, male", "conditions": "oral, dose not given, treatment-related, grade 2", "quantity": "patients with immune-mediated AE", "result": "0%"}
{"SMILES": "C=CC[C@@H]1/C=C(\\C)C[C@H](C)C[C@H](OC)[C@H]2O[C@@](O)(C(=O)C(=O)N3CCCC[C@H]3C(=O)O[C@H](/C(C)=C/[C@@H]3CC[C@@H](O)[C@H](OC)C3)[C@H](C)[C@@H](O)CC1=O)[C@H](C)C[C@@H]2OC", "test system": "kidney transplant recipients, whole blood", "conditions": "oral, dose not given", "quantity": "patients with subtherapeutic C0", "result": "47%"}
{"SMILES": "Cc1cc(NC2CCN(C(=O)OC3CCN(C(=O)/C=C/CN(C)C)C3)CC2)n2ncc(C(C)C)c2n1 (centres unmarked)", "test system": "patients with advanced solid tumours", "conditions": "dose not given, QD arm, grade 3 or higher", "quantity": "patients with Nausea", "result": "2%"}
{"SMILES": "COc1cc(Nc2ncc3c(n2)-c2ccc(Cl)cc2C(c2c(F)cccc2OC)=NC3)ccc1C(=O)O", "assay": "refers to: oral mucositis, grade 2", "test system": "cancer patients, phase 1/2", "conditions": "dose not given, added: pembrolizumab", "quantity": "patients with adverse event", "result": "13%"}
{"SMILES": "CC(C)C[C@H](NC(=O)[C@@H](Cc1c[nH]c2ccccc12)NC(=O)[C@H](Cc1ccc(O)cc1)NC(=O)[C@H](CO)NC(=O)[C@H](Cc1c[nH]c2ccccc12)NC(=O)[C@H](Cc1c[nH]cn1)NC(=O)[C@@H]1CCC(=O)N1)C(=O)N[C@@H](CCCNC(=N)N)C(=O)N1CCC[C@H]1C(=O)NCC(N)=O", "test system": "Chinese CPP children, overall", "conditions": "intramuscular, 22.5 mg, 12 months, day 1, month 6", "quantity": "patients with TEAEs", "result": "89.4%"}
{"SMILES": "CNC(=O)c1ccc(-c2cnc3ncc(Cc4ccc5ncccc5c4)n3n2)cc1F", "assay": "refers to: Fatigue, all grades", "test system": "cancer patients", "conditions": "oral, 600 mg twice daily, other expansion cohort, any causality", "quantity": "patients with adverse event", "result": "28%"}
{"SMILES": "O=C(Nc1nc2cccc(-c3ccc(CN4CCS(=O)(=O)CC4)cc3)n2n1)C1CC1", "test system": "rheumatoid arthritis patients", "conditions": "oral, 100 mg twice daily, 4 weeks, regardless of relatedness", "quantity": "patients with pain in extremity", "result": "0%"}
{"SMILES": "C=CCN1CC(=O)N2[C@@H](Cc3ccc(O)cc3F)C(=O)N(Cc3cccc(N4CC(N5CCN(CC)CC5)C4)n3)C[C@@H]2N1C(=O)NCc1ccccc1", "test system": "advanced solid tumour patients", "conditions": "15 mg twice daily, treatment-related, any grade", "quantity": "patients with ALT increased", "result": "0%"}
